Measured values of several laboratories.
Each line is one published result; not all experiments were run side by side. Several values in a cell are separate wells, animals, samples, runs or records. ± marks the error that the study gave.
USP13 ZnF-UBD domain: Ubiquitin carboxyl-terminal hydrolase 13, ZnF-UBD domain (USP13, Homo sapiens, UniProt Q92995)
Chain of UniProt Q16774 (whole entry, unmodified, looked up): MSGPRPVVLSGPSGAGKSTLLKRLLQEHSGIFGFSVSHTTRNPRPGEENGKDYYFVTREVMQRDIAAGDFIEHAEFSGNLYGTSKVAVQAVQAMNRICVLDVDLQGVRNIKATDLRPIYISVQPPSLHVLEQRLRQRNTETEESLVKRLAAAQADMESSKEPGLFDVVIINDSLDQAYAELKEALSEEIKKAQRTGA
Chain of UniProt P51575 (whole entry, unmodified, looked up): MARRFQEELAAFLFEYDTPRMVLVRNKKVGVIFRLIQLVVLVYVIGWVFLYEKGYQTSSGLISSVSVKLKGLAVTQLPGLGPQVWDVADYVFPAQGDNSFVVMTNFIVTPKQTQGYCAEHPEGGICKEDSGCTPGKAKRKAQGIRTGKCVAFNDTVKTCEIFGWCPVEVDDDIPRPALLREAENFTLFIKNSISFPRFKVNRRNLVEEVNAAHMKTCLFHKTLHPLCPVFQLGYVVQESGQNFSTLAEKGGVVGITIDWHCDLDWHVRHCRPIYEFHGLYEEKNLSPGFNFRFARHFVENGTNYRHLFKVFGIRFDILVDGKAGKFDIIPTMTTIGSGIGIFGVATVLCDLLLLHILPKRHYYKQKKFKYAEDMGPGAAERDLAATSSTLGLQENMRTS
Chain of UniProt Q13133 (whole entry, looked up): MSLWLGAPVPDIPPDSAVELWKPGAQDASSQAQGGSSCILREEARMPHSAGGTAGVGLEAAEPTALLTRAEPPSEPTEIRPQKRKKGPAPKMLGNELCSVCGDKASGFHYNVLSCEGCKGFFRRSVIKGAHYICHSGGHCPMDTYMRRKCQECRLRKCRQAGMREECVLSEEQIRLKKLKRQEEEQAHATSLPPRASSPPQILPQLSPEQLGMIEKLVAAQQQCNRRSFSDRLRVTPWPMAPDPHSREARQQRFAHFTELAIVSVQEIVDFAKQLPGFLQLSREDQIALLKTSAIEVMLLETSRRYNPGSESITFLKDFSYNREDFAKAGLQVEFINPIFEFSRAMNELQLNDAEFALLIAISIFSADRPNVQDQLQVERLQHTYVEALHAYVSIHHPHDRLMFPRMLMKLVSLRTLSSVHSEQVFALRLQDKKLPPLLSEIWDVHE
Chain of UniProt Q92995 (whole entry, looked up): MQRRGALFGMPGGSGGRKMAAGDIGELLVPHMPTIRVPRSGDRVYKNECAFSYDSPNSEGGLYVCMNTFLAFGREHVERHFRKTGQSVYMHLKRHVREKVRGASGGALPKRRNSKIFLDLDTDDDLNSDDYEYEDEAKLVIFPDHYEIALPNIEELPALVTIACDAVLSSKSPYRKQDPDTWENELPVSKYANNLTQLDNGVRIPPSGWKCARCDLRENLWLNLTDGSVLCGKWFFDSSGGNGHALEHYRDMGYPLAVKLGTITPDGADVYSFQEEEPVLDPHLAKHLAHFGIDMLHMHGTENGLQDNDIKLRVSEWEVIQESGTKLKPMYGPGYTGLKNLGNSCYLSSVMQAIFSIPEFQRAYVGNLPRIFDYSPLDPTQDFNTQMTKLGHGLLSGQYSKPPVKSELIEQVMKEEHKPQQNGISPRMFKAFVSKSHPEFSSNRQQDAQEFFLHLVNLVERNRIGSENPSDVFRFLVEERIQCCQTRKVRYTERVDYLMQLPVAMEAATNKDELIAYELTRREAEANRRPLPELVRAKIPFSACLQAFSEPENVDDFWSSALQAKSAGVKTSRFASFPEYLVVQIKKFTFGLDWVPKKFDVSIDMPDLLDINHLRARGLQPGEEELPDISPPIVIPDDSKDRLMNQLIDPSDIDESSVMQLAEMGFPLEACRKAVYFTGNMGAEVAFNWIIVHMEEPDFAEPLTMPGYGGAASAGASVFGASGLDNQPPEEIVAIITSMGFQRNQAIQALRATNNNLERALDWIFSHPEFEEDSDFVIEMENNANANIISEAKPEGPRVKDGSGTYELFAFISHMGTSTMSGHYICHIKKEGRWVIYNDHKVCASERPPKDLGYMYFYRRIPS
Chain of UniProt Q9UH17 (whole entry, looked up): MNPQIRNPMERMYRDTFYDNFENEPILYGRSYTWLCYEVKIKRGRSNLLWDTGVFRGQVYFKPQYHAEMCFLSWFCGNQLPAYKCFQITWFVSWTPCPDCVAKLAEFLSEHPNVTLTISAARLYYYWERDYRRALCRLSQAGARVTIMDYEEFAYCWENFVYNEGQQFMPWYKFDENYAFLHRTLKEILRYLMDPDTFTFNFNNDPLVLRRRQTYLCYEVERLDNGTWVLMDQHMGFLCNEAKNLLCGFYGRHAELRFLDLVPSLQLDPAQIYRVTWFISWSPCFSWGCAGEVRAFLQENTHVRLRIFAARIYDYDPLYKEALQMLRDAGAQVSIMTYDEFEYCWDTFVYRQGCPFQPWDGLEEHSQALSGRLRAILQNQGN
Chain of UniProt P00519 (whole entry, unmodified, looked up): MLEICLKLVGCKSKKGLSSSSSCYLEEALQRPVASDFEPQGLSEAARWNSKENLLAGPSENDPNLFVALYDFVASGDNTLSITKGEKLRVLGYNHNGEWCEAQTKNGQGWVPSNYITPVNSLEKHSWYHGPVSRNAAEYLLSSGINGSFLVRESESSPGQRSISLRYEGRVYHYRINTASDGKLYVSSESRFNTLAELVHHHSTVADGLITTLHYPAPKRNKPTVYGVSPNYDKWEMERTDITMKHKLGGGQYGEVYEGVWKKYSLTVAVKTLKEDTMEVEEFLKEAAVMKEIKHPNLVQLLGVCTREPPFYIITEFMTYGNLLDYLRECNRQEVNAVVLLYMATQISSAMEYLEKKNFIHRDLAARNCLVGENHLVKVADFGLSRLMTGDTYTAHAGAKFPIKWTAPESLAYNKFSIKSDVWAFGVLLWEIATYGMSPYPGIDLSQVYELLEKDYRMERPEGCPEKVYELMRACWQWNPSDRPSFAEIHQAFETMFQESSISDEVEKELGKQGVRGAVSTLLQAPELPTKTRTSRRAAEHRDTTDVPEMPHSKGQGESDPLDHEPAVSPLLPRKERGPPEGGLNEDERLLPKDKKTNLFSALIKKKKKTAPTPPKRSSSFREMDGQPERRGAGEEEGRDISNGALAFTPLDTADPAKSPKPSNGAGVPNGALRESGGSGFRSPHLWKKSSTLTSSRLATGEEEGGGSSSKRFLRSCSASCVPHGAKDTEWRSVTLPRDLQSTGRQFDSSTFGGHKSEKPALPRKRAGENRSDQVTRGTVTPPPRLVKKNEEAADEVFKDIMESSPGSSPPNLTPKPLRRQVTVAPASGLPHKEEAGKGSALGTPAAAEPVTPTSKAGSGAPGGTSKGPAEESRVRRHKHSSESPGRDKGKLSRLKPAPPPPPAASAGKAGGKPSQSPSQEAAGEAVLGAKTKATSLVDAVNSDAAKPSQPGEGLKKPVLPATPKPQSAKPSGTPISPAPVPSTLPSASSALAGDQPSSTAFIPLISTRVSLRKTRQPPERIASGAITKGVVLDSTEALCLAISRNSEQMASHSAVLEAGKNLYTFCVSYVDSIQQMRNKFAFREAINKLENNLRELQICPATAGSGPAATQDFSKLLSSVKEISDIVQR
Chain of UniProt P0AC13 (whole entry, looked up): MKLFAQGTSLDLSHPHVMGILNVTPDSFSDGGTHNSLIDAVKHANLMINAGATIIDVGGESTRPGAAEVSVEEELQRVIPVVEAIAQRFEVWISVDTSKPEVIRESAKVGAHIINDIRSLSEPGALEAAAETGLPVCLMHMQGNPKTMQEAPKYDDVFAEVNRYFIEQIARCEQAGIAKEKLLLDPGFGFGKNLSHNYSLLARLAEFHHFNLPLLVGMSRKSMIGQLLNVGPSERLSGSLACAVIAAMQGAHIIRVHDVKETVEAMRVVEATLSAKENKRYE
Chain of UniProt Q8TD19 (whole entry, looked up): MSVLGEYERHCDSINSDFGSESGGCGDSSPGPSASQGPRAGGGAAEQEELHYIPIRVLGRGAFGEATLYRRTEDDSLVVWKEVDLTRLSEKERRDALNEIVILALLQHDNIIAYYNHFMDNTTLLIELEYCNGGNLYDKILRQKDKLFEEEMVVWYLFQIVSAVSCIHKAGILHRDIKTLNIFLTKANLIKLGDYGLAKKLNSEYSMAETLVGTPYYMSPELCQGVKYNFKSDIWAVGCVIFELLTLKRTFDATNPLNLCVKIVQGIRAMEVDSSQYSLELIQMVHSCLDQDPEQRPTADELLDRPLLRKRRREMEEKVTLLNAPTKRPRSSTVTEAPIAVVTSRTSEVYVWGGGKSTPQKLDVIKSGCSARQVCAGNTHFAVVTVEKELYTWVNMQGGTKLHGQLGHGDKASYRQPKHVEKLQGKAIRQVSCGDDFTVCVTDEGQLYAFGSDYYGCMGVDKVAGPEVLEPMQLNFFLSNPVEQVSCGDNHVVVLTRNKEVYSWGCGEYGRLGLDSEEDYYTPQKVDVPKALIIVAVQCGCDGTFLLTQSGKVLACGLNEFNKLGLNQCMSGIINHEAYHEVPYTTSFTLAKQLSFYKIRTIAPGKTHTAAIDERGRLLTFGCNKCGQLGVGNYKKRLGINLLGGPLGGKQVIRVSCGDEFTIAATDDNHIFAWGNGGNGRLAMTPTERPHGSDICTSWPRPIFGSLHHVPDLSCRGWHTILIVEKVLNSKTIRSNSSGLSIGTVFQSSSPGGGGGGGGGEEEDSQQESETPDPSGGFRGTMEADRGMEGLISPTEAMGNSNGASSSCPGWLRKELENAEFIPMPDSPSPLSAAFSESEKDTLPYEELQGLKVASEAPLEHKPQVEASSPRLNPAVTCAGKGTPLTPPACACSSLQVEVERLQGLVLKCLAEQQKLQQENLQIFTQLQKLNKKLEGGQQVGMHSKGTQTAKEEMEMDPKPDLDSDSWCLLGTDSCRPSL
Chain of UniProt P54292 (whole entry, looked up): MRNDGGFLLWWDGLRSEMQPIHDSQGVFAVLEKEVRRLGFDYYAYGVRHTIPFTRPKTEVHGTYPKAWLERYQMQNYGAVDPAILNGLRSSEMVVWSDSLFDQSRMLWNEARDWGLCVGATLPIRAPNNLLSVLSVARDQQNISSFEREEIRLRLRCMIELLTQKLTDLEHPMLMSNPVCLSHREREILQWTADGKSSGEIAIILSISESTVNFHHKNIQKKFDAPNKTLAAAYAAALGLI

For `COc1cc(C#CC(=O)c2ccc(C)cc2)ccc1O`, the remaining activity was 62% (HTH-type quorum-sensing regulator RhlR (rhlR, Pseudomonas aeruginosa, UniProt P54292); reporter gene, inhibitor, quorum sensing reporter strain; 10 µM, 1.5 h; relative to: DMSO).
`O=C(COP(=O)(O)O)[C@@H](O)[C@H](O)[C@H](O)COP(=O)(O)O`: “thermal stability ratio” 0.705 (Large ribosomal subunit protein uL13 (Homo sapiens, UniProt P40429); thermal proteome profiling, item: RPL13A; HepG2 cell lysate; concentration not given, 57 over 37 °C, mean; relative to: compound over control).
The remaining activity of `COc1cc(-c2cncc3c2CN(C)Cc2cc(N4CCNCC4)ccc2-3)cc(OC)c1OC` is reported as 103% (Serine/threonine-protein kinase Nek9 (NEK9, Homo sapiens, UniProt Q8TD19); kinase activity; 1 µM, human enzyme, together with: ATP 10 µM; relative to: DMSO control).
For `CN(C)c1ncc(F)c(-c2cnn3ncccc23)n1`, the remaining binding was 68% (Tyrosine-protein kinase ABL1 (ABL1, Homo sapiens, UniProt P00519, T315I); KINOMEscan; 1 µM; relative to: control).
For `COc1ccc2c(=O)c(Oc3ccccc3)c(C)oc2c1OC`, “E3 ligase activity” read “no inhibition” (Cullin-1, C-terminal domain with ROC1 (Homo sapiens, UniProt Q13616); inhibitor; up to 80 µM).
`Cc1cc2ccccc2c2ccc3ccccc3c12` has a fold change of 1.36 (Aryl hydrocarbon receptor (Danio rerio, UniProt Q9YGV3); reporter gene, agonist, luciferase reporter; ZF-4; 1.524 µM; relative to: vehicle control).
The protein adduct of `CCC1(O)CCCN(C(=O)c2ccc(-c3ccc(F)c(NC(=O)CCl)c3)cc2)C1` (stereo not shown) is reported as 72% (DNA dC->dU-editing enzyme APOBEC-3B, C-terminal domain (Homo sapiens, UniProt Q9UH17); covalent modifier, intact protein mass spectrometry, item: adduct +25721 Da; 125 µM, 3 h, 5-fold molar excess).
With `Nc1ncnc2c1ncn2[C@@H]1O[C@H](COP(=O)(O)CP(=O)(O)OP(=O)(O)O)[C@@H](O)[C@H]1O` the specific binding was 3550 CCPM and 3000 CCPM (P2X purinoceptor 1 (P2RX1, Homo sapiens, UniProt P51575, K136A); saturation binding; HEK293; 103 nM).
`Nc1nc2c(ncn2[C@@H]2O[C@H](COP(=O)(O)O)[C@@H](O)[C@H]2O)c(=O)[nH]1` gave a reaction rate of -1.36 s⁻¹ and 1.61 s⁻¹ and -1.54 s⁻¹ (GUK1 (Homo sapiens, UniProt Q16774, Y53A); enzyme activity, NADH-coupled; 15.62 µM).
`O=C(O)CNC(=O)c1ccc(S(=O)(=O)N2CCC(n3c(=O)oc4ccccc43)CC2)cc1` has a Kd of over 1000 µM (USP13 ZnF-UBD domain).
`COC(=O)c1cn(C)c2ccc(-c3cccnc3)cc12` has an activation of 1.04 fold (Oxysterols receptor LXR-alpha (NR1H3, Homo sapiens, UniProt Q13133); reporter gene, Gal4 hybrid reporter; 10 µM; relative to: vehicle).
`CCCCCCCCCCCCC/C=C/[C@@H](O)[C@H](CO)NC(=O)CCCCCCCCCCCCCCCCC`: “bound endogenous lipid” 43.2 (Protein SET (SET, Homo sapiens, UniProt Q01105, Y135C); lipid binding, GFP pull-down LC-MS/MS; A549 overexpressing GFP-tagged protein; unit not given; relative to: vector-transfected cells).
`CCOC(=O)C(C)c1n[nH]c2nc(N)[nH]c(=O)c2c1=O` (stereo not shown) gave a melting temperature of 55.5 °C (Dihydropteroate synthase (folP, Bacteria, UniProt P0AC13); CETSA HiBiT; Escherichia coli, whole cells).
For `CN(C)C(=O)C(CCN1CCC(O)(c2ccc(Cl)cc2)CC1)(c1ccccc1)c1ccccc1`, the V1/2 was 14 ± 4 mV (Calcium-activated potassium channel subunit alpha-1, with LRRC26 γ1 subunit (KCNMA1, Homo sapiens, UniProt Q12791); ion current, inside-out patch, mean of individual fits; BKα/γ1 channel; 0.3 µM, together with: nominally 0 Ca2+).
`CC[C@@H]1[C@H](F)C(=O)N[C@@H]1COc1nccc2cc(C(N)=O)c(OC)cc12` gave an inhibition of -0.7% (Aurora kinase A (AURKA, Homo sapiens, UniProt O14965); ATP probe binding, KiNativ profiling, item: Lys2 probe site; THP-1 cell lysate; 0.01 mM).
`O=C(O)CCc1nccs1` gave a Kd of 547 µM (USP13 ZnF-UBD domain).
`N#Cc1ccc(C[C@H](Nc2ncc(-c3ccc(F)cc3)o2)C(=O)N2CCc3ccccc32)cc1`: activity “inactive” (N-formyl peptide receptor 2 (FPR2, Homo sapiens, UniProt P25090); cell-based; concentration not given).
Under “log2 fold change”, `Cn1cc(-c2ccc(-c3cncc(Cl)c3N3CCC4(CCNC4=O)CC3)cc2)cn1` is recorded as 2.35 (COLO 205; gene expression, microarray, item: CDKN1C mRNA; concentration not given, 2 h; relative to: untreated cells).
For `CC1=C(/C=C/C(C)=C/C=C/C(C)=C/C=C/C=C(C)/C=C/C=C(C)/C=C/C2=C(C)CCCC2(C)C)C(C)(C)CCC1`, “Stern-Volmer quenching constant” read 12700 ± 1800 L/mol (Beta-lactoglobulin (LGB, Bos taurus, UniProt P02754); fluorescence quenching; 298 K).

Some of these lines once more:
`N#Cc1ccc(C[C@H](Nc2ncc(-c3ccc(F)cc3)o2)C(=O)N2CCc3ccccc32)cc1`: activity “inactive” (N-formyl peptide receptor 2 (FPR2, Homo sapiens, UniProt P25090); cell-based; concentration not given).
Under “log2 fold change”, `Cn1cc(-c2ccc(-c3cncc(Cl)c3N3CCC4(CCNC4=O)CC3)cc2)cn1` is recorded as 2.35 (COLO 205; gene expression, microarray, item: CDKN1C mRNA; concentration not given, 2 h; relative to: untreated cells).
For `CC1=C(/C=C/C(C)=C/C=C/C(C)=C/C=C/C=C(C)/C=C/C=C(C)/C=C/C2=C(C)CCCC2(C)C)C(C)(C)CCC1`, “Stern-Volmer quenching constant” read 12700 ± 1800 L/mol (Beta-lactoglobulin (LGB, Bos taurus, UniProt P02754); fluorescence quenching; 298 K).
